{"data": "Results collected from several papers", "POLB I260M": "DNA polymerase beta (POLB, Homo sapiens, UniProt P06746, I260M)", "note": "Lines come from different studies, so protocols differ. “And” joins repeats or separate records; there may be more than shown. ± gives the spread as reported."}
{"Structure (SMILES)": "CC(C)C[C@@H]1NC(=O)[C@H](Cc2ccc(O)cc2)NC(=O)[C@H](C(C)C)NC(=O)[C@@H]2CSSC[C@@H]3NC(=O)[C@H](CO)NC(=O)[C@@H]4CSSC[C@H](NC(=O)[C@@H]5CCCN5C(=O)[C@H](Cc5ccccc5)NC(=O)CNC(=O)[C@H](CC(N)=O)NC(=O)[C@H](CCCCN)NC(=O)[C@H](Cc5ccc(O)cc5)NC(=O)[C@H](CSSC[C@H](NC(=O)[C@@H]5CCCN5C1=O)C(=O)N[C@@H](Cc1ccccc1)C(=O)N[C@@H]([C@@H](C)O)C(=O)N[C@@H](C)C(=O)N[C@@H](C)C(=O)N[C@@H](C)C(=O)NCC(=O)N4)NC(=O)[C@H](C(C)C)NC(=O)[C@H](CCCCN)NC(=O)[C@H](CO)NC(=O)[C@H](CCCCN)NC3=O)C(=O)NCC(=O)N[C@@H](CCC(=O)O)C(=O)N[C@@H](CO)C(=O)N2", "target": "POPC/POPE lipid membrane", "test": "membrane binding, surface plasmon resonance", "system": "POPC/POPE 80:20 vesicles", "conditions": "pH 7.4", "Kd": "14.7 ± 1.8 µM"}
{"Structure (SMILES)": "Nc1nc2c(ncn2[C@H]2C[C@H](O)[C@@H](COP(=O)(O)OP(=O)(O)[C@@H](Cl)P(=O)(O)O)O2)c(=O)[nH]1", "target": "DNA polymerase beta (POLB, Homo sapiens, UniProt P06746, R183A)", "test": "substrate, pre-steady-state kinetics", "conditions": "incorporation opposite dC in gapped DNA", "Kd": "300 ± 96 µM"}
{"Structure (SMILES)": "O=C(CCc1cn[nH]c1)N1CCOC(CC(c2ccccc2)c2ccccc2)C1 (centres unmarked)", "target": "Troponin C, slow skeletal and cardiac muscles, with cTnI (TNNC1, Human, UniProt P63316, C35S/C84S/T53C)", "test": "slowing of Ca2+ dissociation, stopped-flow fluorescence", "conditions": "pH 7.0, 15 °C, IAANS-labelled chimera", "Kd": "117 ± 17 µM"}
{"Structure (SMILES)": "OC[C@H]1Oc2cc(I)cc3c2[C@@H](OC3)[C@H]1O", "target": "Galectin-8 (LGALS8, Homo sapiens, UniProt O00214)", "test": "cell-free assay, FP", "Kd": "250 µM"}
{"Structure (SMILES)": "CSCC[C@H](NC(=O)[C@H](CO)NC(=O)[C@H](CCCNC(=N)N)NC(=O)[C@H](CCCCN)NC(=O)[C@H](CO)NC(=O)[C@H](CCCCN)NC(=O)[C@H](CCCCN)NC(=O)CNC(=O)[C@H](CCCCN)NC(=O)[C@H](CCCCN)NC(=O)[C@H](CC(C)C)NC(=O)[C@H](CCCNC(=N)N)NC(=O)[C@H](CCCNC(=N)N)NC(=O)[C@@H](N)CSC1CC(=O)N(c2ccc3c(c2)C(=O)OC32c3ccc(N(C)C)cc3Oc3cc(N(C)C)ccc32)C1=O)C(=O)N[C@@H](CC(N)=O)C(=O)N[C@@H](CC(=O)O)C(=O)N1CCC[C@H]1C(=O)N[C@@H](Cc1ccc(O)cc1)C(=O)O (some centres unmarked)", "target": "Moesin, FERM domain (Homo sapiens, UniProt P26038)", "test": "binding, TMR fluorescence titration", "conditions": "pH 7.4, FERM domain", "Kd": "0.214 ± 0.022 µM"}
{"Structure (SMILES)": "CC[C@H](C)[C@H](NC(=O)[C@H](CC(C)C)NC(=O)[C@H](CCCNC(=N)N)NC(=O)c1ccc(CN2CCN(C)CC2)cc1)C(=O)N[C@@H](Cc1ccccc1)C(N)=O", "target": "Cyclin-A2 (CCNA2, Homo sapiens, UniProt P20248)", "test": "binding, tryptophan fluorescence titration", "conditions": "co-expressed with GroES-GroEL-Tig", "Kd": "> 6.5 µM and 6.77 µM"}
{"Structure (SMILES)": "Cc1n[nH]c(C)c1CCCOc1cc(OCCCCCCNCCOCCN=[N+]=[N-])cc(C(=O)O)c1", "target": "Transthyretin (TTR, Homo sapiens, UniProt P02766)", "test": "cell-free assay, FP", "conditions": "pH 7.4", "Kd": "0.107 µM"}
{"Structure (SMILES)": "Cc1cn([C@H]2C[C@H](O)[C@@H](COP(=O)(O)OP(=O)(O)C(Cl)(Cl)P(=O)(O)O)O2)c(=O)[nH]c1=O", "target": "POLB I260M", "test": "substrate, single turnover kinetics", "conditions": "37 °C", "Kd": "20.9 ± 9.8 µM"}
{"Structure (SMILES)": "CC(=O)N[C@H]1[C@H](O[C@H]2[C@H](OS(=O)(=O)O)[C@@H](OS(=O)(=O)O)[C@H](O[C@H]3[C@H](OS(=O)(=O)O)[C@@H](COS(=O)(=O)O)OC[C@@H]3NC(C)=O)O[C@@H]2C(=O)O)O[C@H](COS(=O)(=O)O)[C@@H](OS(=O)(=O)O)[C@@H]1O[C@@H]1O[C@H](C(=O)O)[C@@H](OS(=O)(=O)O)[C@H](OS(=O)(=O)O)[C@H]1OS(=O)(=O)O", "target": "Interleukin-8 (CXCL8, Homo sapiens, UniProt P10145)", "test": "ligand displacement, FP", "Kd": "6.5 µM"}
{"Structure (SMILES)": "N#Cc1cccc(-c2ccc(=O)n(Cc3cccc(-c4ncc(OCC5CCN(CC(=O)N6CCN(c7ccc8c(c7)C(=O)N(C7CCC(=O)NC7=O)C8=O)CC6)CC5)cn4)c3)n2)c1 (centres unmarked)", "target": "MET (Homo sapiens, UniProt P08581)", "test": "binding", "Kd": "0.17 µM"}
{"Structure (SMILES)": "Nc1nc2c(ncn2C2CC(O)C(COP(=O)(O)OP(=O)(O)C(Br)P(=O)(O)O)O2)c(=O)[nH]1 (mixture of isomers)", "target": "DNA polymerase beta (POLB, Homo sapiens, UniProt P06746)", "test": "nucleotide binding, substrate, single turnover kinetics", "conditions": "37 °C, dG misincorporation opposite A", "Kd": "205 ± 79 µM"}
{"Structure (SMILES)": "CN(C)CCCSC(=S)N1CCN(C(=O)/C=C/c2coc3ccccc3c2=O)CC1", "target": "RNA", "test": "binding, biolayer interferometry", "Kd": "150 µM"}
{"Structure (SMILES)": "CCN(C(=O)c1cc(F)ccc1Oc1nncnc1N1CCC2(C1)CN([C@H](CCCN(C)CCOC)C(C)C)C2)C(C)C", "target": "PRCP (Homo sapiens, UniProt P42785)", "test": "affinity chromatography mass spectrometry", "Kd": "> 10 µM"}
{"Structure (SMILES)": "CCOc1ccc(C(C)=O)cc1NC(=O)c1cc(NC(C)=O)cc(NC(C)=O)c1", "target": "CREB-binding protein, bromodomain (CREBBP, Homo sapiens, UniProt Q92793)", "test": "binding, competition with immobilised ligand", "Kd": "0.2 µM"}
{"Structure (SMILES)": "O=C1c2sc(-c3ccc(N4CCC(F)C4)nc3F)nc2CCN1c1cccnc1 (centres unmarked)", "target": "TAR DNA-binding protein 43, aggregated (TARDBP, Homo sapiens, UniProt Q13148)", "test": "surface plasmon resonance", "system": "brain-derived aggregates", "Kd": "0.06 ± 0.009 µM"}
{"Structure (SMILES)": "Cc1ncsc1-c1ccc([C@H](C)NC(=O)[C@@H]2C[C@@H](O)CN2C(=O)[C@@H](NC(=O)[C@H]2C[C@H](C(=O)N3CCC(c4cc(Nc5cc(C#N)ccn5)nc(N5CCC(F)(F)C5)c4)CC3)C2)C(C)(C)C)cc1", "target": "MAP3K13 (Homo sapiens, UniProt O43283)", "test": "binding, competition with immobilised ligand", "Kd": "0.071 µM"}
{"Structure (SMILES)": "Nc1nc2c(ncn2[C@H]2C[C@H](O)[C@@H](COP(=O)(O)OP(=O)(O)C(F)(F)P(=O)(O)O)O2)c(=O)[nH]1", "target": "POLB I260M", "test": "nucleotide binding, substrate, single turnover kinetics", "conditions": "37 °C, dG misincorporation opposite A", "Kd": "1290 ± 397 µM"}
{"Structure (SMILES)": "CC(C)C[C@@H]1NC(=O)CNC(=O)[C@H](CC(N)=O)NC(=O)[C@H](CCCNC(=N)N)NC(=O)[C@H]([C@@H](C)O)NC(=O)[C@@H]2CSSC[C@@H]3NC(=O)[C@H]([C@@H](C)O)NC(=O)CNC(=O)CNC(=O)[C@H](C(C)C)NC(=O)[C@@H]4CSSC[C@H](NC(=O)[C@H]([C@@H](C)O)NC(=O)[C@H](CSSC[C@H](NC(=O)[C@H](C(C)C)NC(=O)[C@@H]5CCCN5C1=O)C(=O)NCC(=O)N[C@@H](CCC(=O)O)C(=O)N[C@@H]([C@@H](C)O)C(=O)N4)NC(=O)CNC(=O)[C@@H]1CCCN1C(=O)[C@H]([C@@H](C)O)NC(=O)[C@H](CC(N)=O)NC3=O)C(=O)N[C@@H](CO)C(=O)N[C@@H](Cc1c[nH]c3ccccc13)C(=O)N1CCC[C@H]1C(=O)N[C@@H](C(C)C)C(=O)N2", "target": "POPC/POPE lipid membrane", "test": "membrane binding, surface plasmon resonance", "system": "POPC/POPE 80:20 vesicles", "conditions": "pH 7.4", "Kd": "18.2 ± 0.53 µM"}
{"Structure (SMILES)": "O=C(O)CN(CCNc1ccc(N=Nc2cc(C(F)(F)F)cc(C(F)(F)F)c2)c2ccccc12)CC(=O)O", "target": "MAPT (Homo sapiens, UniProt P10636)", "test": "binding, MST", "Kd": "1.54 µM"}
{"Structure (SMILES)": "CNc1ccccc1C(=O)O[C@H]1C[C@H](n2cnc3c(N)ncnc32)O[C@@H]1COP(=O)(O)OP(=O)(O)O", "target": "Unconventional myosin-Va (Gallus gallus, UniProt Q02440, D297C/G292C/I296C/S293C/V295G)", "test": "stopped-flow FRET", "conditions": "10 °C, with: EDTA 4 mM", "Kd": "6.24 ± 0.61 µM"}
{"note": "Some of these lines once more:"}
{"Structure (SMILES)": "O=C1c2sc(-c3ccc(N4CCC(F)C4)nc3F)nc2CCN1c1cccnc1 (centres unmarked)", "target": "TAR DNA-binding protein 43, aggregated (TARDBP, Homo sapiens, UniProt Q13148)", "test": "surface plasmon resonance", "system": "brain-derived aggregates", "Kd": "0.06 ± 0.009 µM"}
